Published values from different studies.
Every numbered part comes from another study and shows a few of its results, in no order. Substitutions count along the parent as printed.
Chain of UniProt Q9FX25 (whole entry, looked up): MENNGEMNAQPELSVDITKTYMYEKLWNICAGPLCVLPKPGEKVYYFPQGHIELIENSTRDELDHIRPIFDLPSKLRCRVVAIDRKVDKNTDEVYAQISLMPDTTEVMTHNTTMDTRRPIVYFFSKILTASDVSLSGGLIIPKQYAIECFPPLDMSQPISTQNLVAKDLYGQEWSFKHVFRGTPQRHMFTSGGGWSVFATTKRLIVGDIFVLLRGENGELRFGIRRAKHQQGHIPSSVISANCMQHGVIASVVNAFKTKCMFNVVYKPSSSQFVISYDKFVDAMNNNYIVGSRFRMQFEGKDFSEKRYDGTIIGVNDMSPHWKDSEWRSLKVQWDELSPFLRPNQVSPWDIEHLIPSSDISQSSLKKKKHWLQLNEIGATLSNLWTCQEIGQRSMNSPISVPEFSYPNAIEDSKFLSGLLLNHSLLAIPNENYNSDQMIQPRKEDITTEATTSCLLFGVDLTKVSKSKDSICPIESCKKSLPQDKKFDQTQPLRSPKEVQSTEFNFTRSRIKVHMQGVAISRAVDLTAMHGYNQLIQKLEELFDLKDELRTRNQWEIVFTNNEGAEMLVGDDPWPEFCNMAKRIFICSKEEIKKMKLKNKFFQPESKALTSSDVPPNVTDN

Sample 1 — technique: competition protein-binding microarray; molecule type: double-stranded DNA, one strand shown; medium: in vitro; concentration: 2 µM; together with: Pho4 competitor, 0.05 µM; direction: higher = stronger binding; all sequences stand within: … GTCTTGATTCGCTTGACGCTGCTG
Target: Centromere-binding protein 1, full length, His-tagged (CBF1, Saccharomyces cerevisiae, UniProt P17106, residues 1-351)
Chain of UniProt P17106 (whole entry, looked up): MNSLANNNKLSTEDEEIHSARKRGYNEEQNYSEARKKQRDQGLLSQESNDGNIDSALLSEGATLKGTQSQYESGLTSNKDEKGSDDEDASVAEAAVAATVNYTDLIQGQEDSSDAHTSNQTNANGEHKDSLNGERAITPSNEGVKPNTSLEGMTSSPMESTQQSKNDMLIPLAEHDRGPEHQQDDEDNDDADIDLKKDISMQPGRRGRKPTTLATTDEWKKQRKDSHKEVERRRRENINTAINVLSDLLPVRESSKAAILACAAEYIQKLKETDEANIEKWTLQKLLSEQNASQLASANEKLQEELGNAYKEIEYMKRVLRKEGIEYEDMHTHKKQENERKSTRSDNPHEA
Notes: whole 60-bp probe, lowest competitor level
Oligonucleotide	fluorescence intensity [a.u.]
TTCTGAATATGCGGCCACGTGTGGAATGATGTCCTG	1020
AAATTACTAAGTTGTCACCGGACTTACCCCGTATGA	85.7
CCAATTAACCAAAGCCACGTGGATTTGTCATCAGAG	1000
ACGACCAAGTTCATCTAAAATTAACAGTGTTTCTGT	83.1
TTTTTTGAGACTTACCTCGTGTTGGTGTCTCCCTGG	89.1
ATCTTTCCCCGCATTCTCGTGGGTACCAAATAAGCT	78.2
GGTTTACCGGAATGTCAGGTGATAGCAGCGGAGGGT	654
TCAACACTGTACTGTCACATGCTAATAAAGATAACA	1030
CTTTCCCGATCTTGCGGCGTGGGTGTAGCACATTTG	65.2
GTCTTGTCTCATTGTGCAGTGGGTGTCCCCACTTCA	69.3
TGCGCAACAACTTGTGCAGTGGGTGTATGTCTAGAA	67.6
AAATTACTAAGTTGCCACGTGTTTTACCCCGTATGA	1220
TCAAAAAAGCCAAAAAGGGTGTGCCTGTAGATTGTG	63.1
AAATTACTAAGTTTTCACGTGTATTACCCCGTATGA	724
TTACCGACGAGGCTTACCGTGATTGCTCTCCAGTAG	66.1
CGTCCTAGCGATTGAATAGTGGGTGCCATGAGGAAG	77.8
GTCTTGTCTCATTTTCACGTGTAATTCCCCACTTCA	622
TGGGATAATATCTTCCACGTGATGGTTGAACAACCA	3050
GCAAGAAGTAACTGGCGTGTGCACAAGAATACTTGT	84.1

Sample 2 — technique: protein-binding microarray; molecule type: double-stranded DNA, one strand shown; medium: in vitro; concentration: 2540 nM top; notes: 60-bp whole probe; together with: salmon DNA 0.4 mg/ml; reference: random background probes; direction: higher = stronger binding; all sequences stand within: GCCTAGCAC … GTCTTGATTCGCTTGACGCTGCTG
Target: Interferon regulatory factor 3, full length, phosphomimetic (IRF3, Homo sapiens, UniProt Q14653, residues 1-427, S386D/S396D/S398D/S402D/T404D/S405D)
Construct (chain): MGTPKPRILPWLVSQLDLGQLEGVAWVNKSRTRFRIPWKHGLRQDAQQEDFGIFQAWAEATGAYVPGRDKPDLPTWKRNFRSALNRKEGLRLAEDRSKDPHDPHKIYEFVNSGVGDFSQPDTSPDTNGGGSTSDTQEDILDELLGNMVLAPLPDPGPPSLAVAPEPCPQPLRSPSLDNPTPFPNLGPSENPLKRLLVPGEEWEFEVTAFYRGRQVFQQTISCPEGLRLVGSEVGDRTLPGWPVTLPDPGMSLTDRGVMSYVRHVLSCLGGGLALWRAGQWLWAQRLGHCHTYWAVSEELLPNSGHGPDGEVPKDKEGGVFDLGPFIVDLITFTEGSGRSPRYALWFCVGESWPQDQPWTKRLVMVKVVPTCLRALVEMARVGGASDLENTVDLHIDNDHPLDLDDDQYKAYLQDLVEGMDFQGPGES
Oligonucleotide	fitted relative affinity [z-score]
GACGATTTCGAGTTTCGAGACGTGCTA	2.43
AGGCCTCTGGGATCCCAGTCGGTGCTA	-0.38
TAAGATATCGGGACTGGATTAGTGCTA	-0.126
GACGTTTTCCTACTGCTGACGTGCTAG	3.11
GACGAACTCAGACTGGAGACGTGCTAG	-0.061
TCATTTGTTTCACTTCCTACTGTGCTA	4.25
GGAAATTCCAAGTTCATGGGGTGCTAG	0.286
TTAGATCTCAGTTTCGTTTAGTGCTAG	3.75
TCACCTTTTTTTTTTTTACTGTGCTAG	2.4
TTAGGTTTCGGTTCCGGTAAGTGCTAG	11.4
TTCGATCTCAGTATCGATTAGTGCTAG	1.58
TTAGATATCGGGATTCGATTAGTGCTA	0.505
CCCTCCCTAATTCTGATTGGGTGCTAG	1.04
CTCACCGCTGGAGTTCTGCGGTGCTAG	-0.596
TTAGTTTTCCTTCTCCTTTAGTGCTAG	7.8
TTGGATCTCAGACTGGATTAGTGCTAG	-0.31
GACGATTTCGGGTATCGACACGTGCTA	1.82

Sample 3 — target: UBE2V2 UBC core domain (UniProt Q15819); technique: yeast two-hybrid; medium: yeast; notes: mostly zero background; reference: not given; direction: higher = stronger interaction
B1: RFPL2 RING domain (UniProt O75678); chain MAALFQEASSCPVCSDYLEKPMSLECGCAVCLKCINSLQKEPHGEDLLCCCSSMVSRKNKIRR
B2: RNF14 RING domain (UniProt Q9UBS8); chain IKCFNSKLFLCSICFCEKLGSECMYFLECRHVYCKACLKDYFEIQIRDGQVQCLNCPEPKCPSVATPGQVK
B3: RNF32 RING domain (UniProt Q9H0A6); chain SLLQGDSVQPCPICKEEFELRPQVLLSCSHVFHKACLQAFEKFTNKKTCPLCRKNQYQTRVIH
B4: ANKIB1 RING domain (UniProt Q9P2G1); chain LSPGDLDTSLCDICMCSISVFEDPVDMPCGHDFCRGCWESFLNLKIQEGEAHNIFCPAYDCFQLVPVDIIE
B5: TRIM35 RING domain (UniProt Q9UPQ4); chain PSRSFKEELLCAVCYDPFRDAVTLRCGHNFCRGCVSRCWEVQVSPTCPVCKDRASPADLRT
B6: UBE4A RING domain (UniProt Q14139); chain LQQQEEETYADACDEFLDPIMSTLMCDPVVLPSSRVTVDRSTIARHLLSDQTDPFNRSPLTMDQIRPNTELKEKIQRWLAERKQQKEQLE
B7: RNF43 RING domain (UniProt Q68DV7); chain SGSSCSSAPVCAICLEEFSEGQELRVISCLHEFHRNCVDPWLHQHRTCPLCMFNITEGDSFS
B8: TRIM38 RING domain (UniProt O00635); chain STKKMMEEATCSICLSLMTNPVSINCGHSYCHLCITDFFKNPSQKQLRQETFCCPQCRAPFHMDSLRP
Target sequence (chain): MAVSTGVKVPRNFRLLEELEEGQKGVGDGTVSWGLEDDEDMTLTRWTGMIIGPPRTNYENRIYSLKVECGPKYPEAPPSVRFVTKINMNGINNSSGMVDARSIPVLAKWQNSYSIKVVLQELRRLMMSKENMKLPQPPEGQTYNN
Sequence	lacZ reporter activity
KIKDLNEHIVCCLCAGYFVDATTITECLHTFCKSCIVKYLQTSKYCPMCNIKIHETQPLL (PCGF1 RING domain (UniProt Q9BSM1))	0
B1 (RFPL2 RING domain)	0
B2 (RNF14 RING domain)	0
ISNDSETLEECMVCSDMKRDTLFGPCGHIATCSLCSPRVKKCLICKEQVQSRTKIE (MIB1 RING domain (UniProt Q86YT6))	0
B3 (RNF32 RING domain)	0
B4 (ANKIB1 RING domain)	0
QLQDEEDDSLCRICMDAVIDCVLLECGHMVTCTKCGKRMSECPICRQYVVRAVHVF (RNF34 RING domain (UniProt Q969K3))	0
SYEDKSNDFVCPICFDMIEEAYMTKCGHSFCYKCIHQSLEDNNRCPKCNYVVDNIDHLY (COP1 RING domain (UniProt Q8NHY2))	0
B5 (TRIM35 RING domain)	0
B6 (UBE4A RING domain)	0
B7 (RNF43 RING domain)	0
B8 (TRIM38 RING domain)	0
MANWVFCNRCFQPPHRTSCFSLTNCGHVYCDACLGKGKKNECLICKAPCRTVLLSK (RNF212 RING domain (UniProt Q495C1))	0

Sample 4 — technique: DHFR PCA, deep sequencing; medium: yeast; together with: (+)-ABA 2500 µM; reference: wild-type fitted maximum; direction: higher = stronger binding
Target: ABI1, truncated, D143A, DHFR fusion (Arabidopsis thaliana)
Notes: methotrexate growth selection, single substitutions
Starting sequence: PYL1, truncated, DHFR fusion (Arabidopsis thaliana); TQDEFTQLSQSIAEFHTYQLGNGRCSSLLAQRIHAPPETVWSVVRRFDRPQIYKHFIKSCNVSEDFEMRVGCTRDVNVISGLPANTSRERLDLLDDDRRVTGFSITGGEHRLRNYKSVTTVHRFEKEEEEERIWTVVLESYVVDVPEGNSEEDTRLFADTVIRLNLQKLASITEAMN; partner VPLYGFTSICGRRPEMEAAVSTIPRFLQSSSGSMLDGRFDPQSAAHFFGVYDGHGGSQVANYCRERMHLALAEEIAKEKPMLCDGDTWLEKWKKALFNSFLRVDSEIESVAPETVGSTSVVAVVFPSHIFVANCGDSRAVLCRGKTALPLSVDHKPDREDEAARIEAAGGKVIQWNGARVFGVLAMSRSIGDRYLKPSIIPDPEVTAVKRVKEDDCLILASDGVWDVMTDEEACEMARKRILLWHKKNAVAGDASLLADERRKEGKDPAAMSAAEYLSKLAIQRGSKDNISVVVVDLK
Variant	relative binding score [%]
F124E	104
H110T	91.3
Y18T	92.3
S27I	5.17
T154C	98.1
N85G	95.4
T119N	65.2
V142A	94
L93D	84.9
E151H	99.8
H34A	93.9
L93F	109
T39V	95.2
P146A	96.8
E127T	101
D3C	101
E139P	-0.448
K126M	101
V136Q	94.9
A30F	105
S150C	97.6
I33N	-8.98
F56P	20.6
L28I	91.4
Y53I	79.6

Sample 5 — target: ATF5, bZIP domain (human); technique: DHFR protein complementation; medium: yeast; reference: wild-type JUN-FOS pair; direction: higher = stronger binding
Notes: single substitutions, most at no-binding floor
Starting sequence: JUN, bZIP domain (human); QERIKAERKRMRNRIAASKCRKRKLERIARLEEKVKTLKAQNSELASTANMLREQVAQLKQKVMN; partner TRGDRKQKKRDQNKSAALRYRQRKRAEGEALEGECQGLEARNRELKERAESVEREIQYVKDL
Variant	binding fitness [natural log]
Q41G	-1.45
E32I	-1.33
E33W	-1.5
E44Q	-1.59
S43C	-1.49
E32Y	-1.49
E54H	-1.5
N42K	-1.45
A40G	-1.47
E32K	-1.45
R30P	-1.53
L52I	-1.13
A57E	-1.51
V56D	-1.56
M51N	-1.04
I28F	-1.54
T48C	-1.42

Sample 6 — technique: protein binding microarray; molecule type: double-stranded DNA, one strand shown; medium: in vitro; concentration: not given; reference: not given; direction: higher = stronger binding
Target: Histone acetyltransferase KAT6A, both winged helices, GST fusion (KAT6A, Homo sapiens, UniProt Q92794, residues 1-181)
Notes: 8-mer, flanks averaged, mean of 2 arrays, mostly near background
Target sequence (chain): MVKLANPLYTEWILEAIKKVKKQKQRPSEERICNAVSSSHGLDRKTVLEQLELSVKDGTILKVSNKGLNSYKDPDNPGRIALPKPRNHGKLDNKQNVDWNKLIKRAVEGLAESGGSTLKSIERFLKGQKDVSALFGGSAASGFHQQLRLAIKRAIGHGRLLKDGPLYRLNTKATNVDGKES
Oligonucleotide	E-score
CGGAACAA	0.257
ACCATCGT	-0.0893
TCGCGGCA	0.352
TGCGAACA	0.0143
CGTGCCCC	0.0433
ATGGTTTG	-0.0667
CCGGCTTC	0.223
GCGACCCC	0.0905
GGTGTGAA	-0.0279
GCCTCCGC	0.207
ATTTCGGA	0.0892
AGGTGTAG	-0.0794
GGTTCCAC	-0.0307
AGAAACGA	-0.188
ACTAAGGG	-0.0895
CGTCGACC	-0.0086
ACTAGTAA	-0.129
ACCCGACT	0.000695
CTAACTCA	-0.158
TAATCTAA	-0.074
ACGTTACG	0.0821
AACCAAAG	-0.257
ATCAAGCG	0.169
AAATATCC	0.0137
GTACGAGA	-0.0161

Further values, each from its own experiment
B9: ARF4 660-788 (Arabidopsis thaliana, UniProt Q9ZTX9); chain QSSSKRICTKVHKQGSQVGRAIDLSRLNGYDDLLMELERLFNMEGLLRDPEKGWRILYTDSENDMMVVGDDPWHDFCNVVWKIHLYTKEEVENANDDNKSCLEQAALMMEASKSSSVSQPDSSPTITRV
Sequence	partner	test	scale	measurement	value
B9 (ARF4 660-788)	ARF13 (Arabidopsis thaliana, UniProt Q9FX25)	two-hybrid	reference: out of 4 tests, higher = firmer interaction	positive tests	0
